Measurements pooled from the literature.
Protocols differ between the studies behind these lines. Values joined by “and” are separate records of one study, mostly repeats; a detail may differ. ± gives the spread as reported.
T1: ssDNA, single-stranded; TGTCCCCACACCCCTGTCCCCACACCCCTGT
T2: ssDNA, aptamer; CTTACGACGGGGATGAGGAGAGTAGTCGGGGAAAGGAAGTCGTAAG
Sequence of UniProt Q16774 (whole entry, unmodified, looked up): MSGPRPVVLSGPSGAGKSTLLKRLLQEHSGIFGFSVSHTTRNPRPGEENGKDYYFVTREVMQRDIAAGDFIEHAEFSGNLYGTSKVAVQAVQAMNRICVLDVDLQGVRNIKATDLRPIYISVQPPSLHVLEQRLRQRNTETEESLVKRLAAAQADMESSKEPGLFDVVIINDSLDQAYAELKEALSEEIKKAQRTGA
Sequence of UniProt Q8NER1 (whole entry, unmodified, looked up): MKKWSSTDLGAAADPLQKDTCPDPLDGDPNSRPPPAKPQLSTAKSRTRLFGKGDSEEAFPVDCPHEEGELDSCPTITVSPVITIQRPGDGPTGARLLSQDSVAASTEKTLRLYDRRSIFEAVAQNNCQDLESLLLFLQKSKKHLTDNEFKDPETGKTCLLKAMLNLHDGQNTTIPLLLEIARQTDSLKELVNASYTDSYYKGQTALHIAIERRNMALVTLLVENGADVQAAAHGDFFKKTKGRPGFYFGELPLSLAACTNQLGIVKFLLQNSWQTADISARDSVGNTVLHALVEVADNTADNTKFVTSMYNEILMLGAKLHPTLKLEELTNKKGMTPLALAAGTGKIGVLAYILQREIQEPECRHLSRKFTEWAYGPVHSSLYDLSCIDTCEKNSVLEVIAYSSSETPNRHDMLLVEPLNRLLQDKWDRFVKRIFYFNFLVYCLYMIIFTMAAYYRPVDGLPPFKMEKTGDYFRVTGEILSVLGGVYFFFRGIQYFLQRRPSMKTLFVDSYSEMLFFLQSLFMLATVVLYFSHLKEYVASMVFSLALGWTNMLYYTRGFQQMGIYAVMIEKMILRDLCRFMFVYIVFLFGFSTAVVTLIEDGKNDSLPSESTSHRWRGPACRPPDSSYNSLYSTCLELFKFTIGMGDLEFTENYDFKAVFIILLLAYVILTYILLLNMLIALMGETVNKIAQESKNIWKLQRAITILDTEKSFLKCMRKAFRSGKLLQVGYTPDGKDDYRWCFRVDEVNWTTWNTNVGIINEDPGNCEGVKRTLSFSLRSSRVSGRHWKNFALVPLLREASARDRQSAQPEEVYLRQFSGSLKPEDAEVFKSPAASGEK
Sequence of UniProt P21917 (whole entry, looked up): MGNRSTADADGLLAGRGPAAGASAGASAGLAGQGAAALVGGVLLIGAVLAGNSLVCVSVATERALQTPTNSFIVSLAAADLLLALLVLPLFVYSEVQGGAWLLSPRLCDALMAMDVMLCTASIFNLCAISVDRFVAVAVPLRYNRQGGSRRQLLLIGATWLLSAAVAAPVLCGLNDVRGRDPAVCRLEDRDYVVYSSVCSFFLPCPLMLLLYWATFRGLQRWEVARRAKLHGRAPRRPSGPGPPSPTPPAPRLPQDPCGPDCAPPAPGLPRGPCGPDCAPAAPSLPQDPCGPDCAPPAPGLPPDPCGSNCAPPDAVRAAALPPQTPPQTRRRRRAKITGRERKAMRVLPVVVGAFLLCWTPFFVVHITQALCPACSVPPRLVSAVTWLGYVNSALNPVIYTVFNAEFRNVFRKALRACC
Sequence of UniProt Q15399 (whole entry, looked up): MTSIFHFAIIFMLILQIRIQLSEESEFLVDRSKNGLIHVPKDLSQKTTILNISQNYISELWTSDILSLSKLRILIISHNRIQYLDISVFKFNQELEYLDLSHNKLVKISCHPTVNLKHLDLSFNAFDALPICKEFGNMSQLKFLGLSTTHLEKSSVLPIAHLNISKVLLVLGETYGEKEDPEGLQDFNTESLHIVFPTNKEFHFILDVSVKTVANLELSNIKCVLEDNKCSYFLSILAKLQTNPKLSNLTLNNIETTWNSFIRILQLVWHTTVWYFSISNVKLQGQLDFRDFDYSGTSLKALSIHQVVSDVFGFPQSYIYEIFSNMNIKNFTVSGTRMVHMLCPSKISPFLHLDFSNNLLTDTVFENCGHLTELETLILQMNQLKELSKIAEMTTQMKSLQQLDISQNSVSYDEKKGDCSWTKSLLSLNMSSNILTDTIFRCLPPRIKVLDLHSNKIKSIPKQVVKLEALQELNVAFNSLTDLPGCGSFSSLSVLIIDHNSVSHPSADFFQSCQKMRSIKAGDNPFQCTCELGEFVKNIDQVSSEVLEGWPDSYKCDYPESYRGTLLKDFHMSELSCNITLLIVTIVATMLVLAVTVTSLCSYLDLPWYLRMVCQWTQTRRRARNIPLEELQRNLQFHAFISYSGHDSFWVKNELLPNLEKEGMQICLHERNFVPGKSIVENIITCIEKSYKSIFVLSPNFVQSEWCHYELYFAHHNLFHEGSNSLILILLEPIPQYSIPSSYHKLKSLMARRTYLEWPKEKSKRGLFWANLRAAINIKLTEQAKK
Sequence of UniProt P19440 (whole entry, looked up): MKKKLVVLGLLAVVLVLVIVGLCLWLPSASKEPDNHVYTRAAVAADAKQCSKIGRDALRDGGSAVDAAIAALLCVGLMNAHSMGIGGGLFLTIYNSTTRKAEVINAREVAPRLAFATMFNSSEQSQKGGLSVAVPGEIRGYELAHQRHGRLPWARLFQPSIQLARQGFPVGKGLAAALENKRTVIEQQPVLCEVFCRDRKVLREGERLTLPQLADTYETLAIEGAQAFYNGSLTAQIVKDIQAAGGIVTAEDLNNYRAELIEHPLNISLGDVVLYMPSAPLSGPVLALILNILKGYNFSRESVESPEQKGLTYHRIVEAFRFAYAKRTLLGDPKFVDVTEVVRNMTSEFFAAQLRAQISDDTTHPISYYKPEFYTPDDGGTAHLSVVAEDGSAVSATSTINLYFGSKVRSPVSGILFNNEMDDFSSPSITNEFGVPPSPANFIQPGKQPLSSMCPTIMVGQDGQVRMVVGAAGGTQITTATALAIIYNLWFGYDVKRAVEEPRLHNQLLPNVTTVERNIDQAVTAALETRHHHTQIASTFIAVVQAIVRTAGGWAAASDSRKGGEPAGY
Sequence of UniProt Q07011 (whole entry, looked up): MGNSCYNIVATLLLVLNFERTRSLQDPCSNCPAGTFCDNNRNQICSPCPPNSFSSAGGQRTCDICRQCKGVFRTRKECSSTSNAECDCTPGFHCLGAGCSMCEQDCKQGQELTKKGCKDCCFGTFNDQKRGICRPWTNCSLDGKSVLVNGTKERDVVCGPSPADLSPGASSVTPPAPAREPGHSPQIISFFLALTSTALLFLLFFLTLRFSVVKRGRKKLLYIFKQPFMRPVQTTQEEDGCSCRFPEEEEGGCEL
Sequence of UniProt O60603 (whole entry, looked up): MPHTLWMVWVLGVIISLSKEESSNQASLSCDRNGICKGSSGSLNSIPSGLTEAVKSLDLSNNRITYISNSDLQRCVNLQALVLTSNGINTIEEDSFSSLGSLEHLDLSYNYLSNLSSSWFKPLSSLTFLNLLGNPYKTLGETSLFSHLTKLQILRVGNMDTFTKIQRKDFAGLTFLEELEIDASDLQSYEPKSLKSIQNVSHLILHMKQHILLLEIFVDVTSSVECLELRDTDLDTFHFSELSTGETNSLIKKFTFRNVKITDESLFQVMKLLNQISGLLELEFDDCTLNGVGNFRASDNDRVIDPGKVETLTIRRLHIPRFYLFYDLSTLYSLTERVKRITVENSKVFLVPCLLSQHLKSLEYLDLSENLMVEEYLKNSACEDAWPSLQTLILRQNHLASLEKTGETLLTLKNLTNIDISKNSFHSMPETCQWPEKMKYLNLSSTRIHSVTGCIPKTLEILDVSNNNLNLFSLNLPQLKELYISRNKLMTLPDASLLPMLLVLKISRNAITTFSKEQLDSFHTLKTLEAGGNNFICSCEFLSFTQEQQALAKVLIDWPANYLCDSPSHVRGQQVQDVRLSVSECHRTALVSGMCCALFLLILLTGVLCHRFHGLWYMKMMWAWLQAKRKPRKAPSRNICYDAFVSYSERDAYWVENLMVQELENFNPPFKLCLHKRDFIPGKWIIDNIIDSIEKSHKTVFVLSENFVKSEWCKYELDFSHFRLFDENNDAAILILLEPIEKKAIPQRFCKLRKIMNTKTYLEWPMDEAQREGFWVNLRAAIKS
Sequence of UniProt P49761 (whole entry, looked up): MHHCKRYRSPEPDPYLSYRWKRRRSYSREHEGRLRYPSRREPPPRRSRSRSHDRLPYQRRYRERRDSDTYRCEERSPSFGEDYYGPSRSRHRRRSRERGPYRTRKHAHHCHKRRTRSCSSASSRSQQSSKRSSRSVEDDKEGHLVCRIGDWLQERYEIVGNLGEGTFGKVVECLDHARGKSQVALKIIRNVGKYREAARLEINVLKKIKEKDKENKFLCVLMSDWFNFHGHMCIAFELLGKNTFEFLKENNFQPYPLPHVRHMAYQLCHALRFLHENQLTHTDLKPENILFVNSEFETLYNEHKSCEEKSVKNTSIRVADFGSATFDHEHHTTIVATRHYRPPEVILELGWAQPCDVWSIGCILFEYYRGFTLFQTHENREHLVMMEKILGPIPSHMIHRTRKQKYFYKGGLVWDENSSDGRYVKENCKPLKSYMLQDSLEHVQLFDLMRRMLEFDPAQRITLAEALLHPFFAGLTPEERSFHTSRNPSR
Sequence of UniProt P22736 (whole entry, looked up): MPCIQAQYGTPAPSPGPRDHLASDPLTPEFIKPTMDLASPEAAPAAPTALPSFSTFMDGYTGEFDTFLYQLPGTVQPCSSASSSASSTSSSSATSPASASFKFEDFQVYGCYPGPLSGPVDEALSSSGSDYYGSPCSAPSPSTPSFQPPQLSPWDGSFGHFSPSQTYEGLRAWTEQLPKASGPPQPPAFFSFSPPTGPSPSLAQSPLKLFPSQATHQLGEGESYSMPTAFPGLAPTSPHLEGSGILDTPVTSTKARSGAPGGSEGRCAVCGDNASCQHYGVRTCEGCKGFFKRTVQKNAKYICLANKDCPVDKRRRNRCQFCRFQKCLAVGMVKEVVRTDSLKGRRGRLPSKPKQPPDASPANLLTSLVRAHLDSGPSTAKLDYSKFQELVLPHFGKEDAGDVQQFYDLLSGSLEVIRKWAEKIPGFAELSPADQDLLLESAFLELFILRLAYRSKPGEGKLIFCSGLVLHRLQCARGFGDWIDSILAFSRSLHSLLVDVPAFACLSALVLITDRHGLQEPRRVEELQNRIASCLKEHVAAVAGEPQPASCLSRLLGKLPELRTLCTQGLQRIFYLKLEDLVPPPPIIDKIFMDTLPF

| Structure (SMILES) | target | test | system | setting | scale | quantity | result |
| --- | --- | --- | --- | --- | --- | --- | --- |
| COc1cc(CNC(=O)CCCC/C=C/C(C)C)ccc1O | TRPV1 (Homo sapiens, UniProt Q8NER1, M514Q) | agonist, outside-out patch clamp | – | M514Q mutant | – | Hill coefficient | 1.3 |
| O=C(O)c1ccc(Nc2ncc3c(n2)-c2ccc(Cl)cc2C(c2c(F)cccc2F)=NC3)cc1 | CaMKI(h) | kinase activity | – | 1 µM | – | remaining activity | 98% |
| CC[C@@H]1[C@H](F)C(=O)N[C@@H]1COc1nccc2cc(C(N)=O)c(OC)cc12 | CLK3 (Homo sapiens, UniProt P49761) | ATP probe binding, KiNativ profiling, item: ATP loop probe site | THP-1 cell lysate | 0.04 mM | – | inhibition | 15.5% |
| Cc1ccc(OC[C@@H]2CN(CCN3CCc4ccccc43)CCO2)cn1 | DRD4 (Homo sapiens, UniProt P21917) | radioligand binding | – | concentration not given, together with: [3H]N-methylspiperone | – | inhibition | 94.2% |
| CNc1ccc(C(=O)OC)cc1-n1cnc(-c2ccc(C(F)(F)F)cc2)c1 | Toll-like receptor 1/2 (Homo sapiens, UniProt O60603+Q15399) | reporter gene, agonist | HEK-Blue hTLR2 | concentration not given | – | maximal activation | ≥ 50% |
| Nc1nc2c(ncn2[C@@H]2O[C@H](COP(=O)(O)O)[C@@H](O)[C@H]2O)c(=O)[nH]1 | GUK1 (Homo sapiens, UniProt Q16774, T83A) | enzyme activity, NADH-coupled | – | 250 µM | – | reaction rate | 21 s⁻¹ and 21.9 s⁻¹ and 23.6 s⁻¹ |
| NCCOc1cc(C(=O)Nc2cc(OCCN)c3ccccc3n2)nc(C(=O)Nc2cc(OCCN)c3ccccc3n2)c1 | T1, ssDNA, single-stranded | laser tweezers | – | KCl 100 mM | – | binding | no binding |
| Nc1ncnc2c1ncn2[C@@H]1O[C@H](COP(=O)(O)OP(=O)(O)O)[C@@H](O)[C@H]1O | T2, ssDNA, aptamer | ITC | – | – | – | Kd | 18.3 µM |
| O=c1nc(SCc2cc(F)cc(C(F)(F)F)c2)nc(SCc2csc3ccc(Cl)cc23)[nH]1 | TOP2A (Homo sapiens, UniProt P11388) | decatenation | – | 0.49 µM, replicate 1 | – | decatenated DNA | 0% |
| CCCCCCCCCCCCCCCC(=O)Oc1ccc([N+](=O)[O-])cc1 | Aspergillus oryzae GP11 lipase | lipase activity, p-nitrophenol release | Tris-HCl buffer, Triton X-100, gum acacia | 10 min, pH 35, 8.0 °C, together with: p-nitrophenyl palmitate | – | Km | 588 µM |
| COc1ccc(Cc2nnc(NS(=O)(=O)c3ccc(C)cc3)s2)cc1 | Glutathione hydrolase 1 proenzyme, without transmembrane domain (Homo sapiens, UniProt P19440) | GSH hydrolysis, uncompetitive inhibitor | – | 37 °C, binds gamma-glutamyl enzyme, together with: GSH 5-20 µM | – | Kii | 506 ± 75 µM |
| CCCC[C@@H]1NC(=O)[C@H](Cc2ccc(O)cc2)NC(=O)[C@@H]2CCCN2C(=O)[C@H](CC(=O)O)NC(=O)[C@H](C)NC(=O)[C@H](Cc2ccccc2)NC(=O)[C@@H]2CSCCC(=O)N3CN(CN(C3)C(=O)CCSCCC(=O)N[C@@H](CC(C)(C)C)C(=O)N3CCC[C@H]3C(=O)N[C@@H](CCC(=O)O)C(=O)N[C@H](CCCCNC(=O)CCc3cn(CCOCCOCCOCCN(CCOCCOCCOCCC(=O)N[C@H]4CSCCC(=O)N5CN6CN(C5)C(=O)CCSC[C@H](NC(=O)[C@@H](CC(=O)O)NC(=O)[C@H](Cc5cccc7ccccc57)NC(=O)[C@@H]5CCCN5C4=O)C(=O)N[C@@H](CCSC)C(=O)N[C@@H](CCCCNC(=N)N)C(=O)N[C@@H](CC(=O)O)C(=O)N[C@@H](Cc4c[nH]c5ccccc45)C(=O)N[C@@H](CO)C(=O)N[C@@H]([C@@H](C)O)C(=O)N4CCC[C@H]4C(=O)N4C[C@H](O)C[C@H]4C(=O)N[C@@H](Cc4c[nH]c5ccccc45)C(=O)N[C@H](C(N)=O)CSCCC6=O)CCOCCOCCOCCn4cc(CCC(=O)NCCCC[C@H]5NC(=O)[C@H](CCC(=O)O)NC(=O)[C@@H]6CCCN6C(=O)[C@H](CC(C)(C)C)NC(=O)CCSCCC(=O)N6CN7CN(C6)C(=O)CCSC[C@H](NC(=O)[C@H](Cc6ccc(O)cc6)NC(=O)[C@@H]6CCCN6C5=O)C(=O)N[C@@H](Cc5ccccc5)C(=O)N[C@@H](C)C(=O)N[C@@H](CC(=O)O)C(=O)N5CCC[C@H]5C(=O)N[C@@H](Cc5ccc(O)cc5)C(=O)N[C@@H](CCCC)C(=O)NCCSCCC7=O)nn4)nn3)C(=O)N3CCC[C@H]3C(=O)N[C@@H](Cc3ccc(O)cc3)C(=O)N2)C(=O)CCSCCNC1=O | Tumor necrosis factor receptor superfamily member 9/Nectin-4 (Homo sapiens, UniProt Q07011+Q96NY8) | reporter gene, agonist | HT-1376 coculture with reporter cells | – | baseline: background | Emax | 71 fold |
| Cc1cccc(/C=C/C(=O)Nc2cc(-c3ccnc(N4CCC(O)CC4)c3)ccn2)c1 | Nuclear receptor subfamily 4 group A member 1 (NR4A1, Homo sapiens, UniProt P22736) | SPR | – | 10.0 µM | – | binding response | 33 RU |

A few entries again:
| Structure (SMILES) | target | test | system | setting | scale | quantity | result |
| --- | --- | --- | --- | --- | --- | --- | --- |
| Nc1nc2c(ncn2[C@@H]2O[C@H](COP(=O)(O)O)[C@@H](O)[C@H]2O)c(=O)[nH]1 | GUK1 (Homo sapiens, UniProt Q16774, T83A) | enzyme activity, NADH-coupled | – | 250 µM | – | reaction rate | 21 s⁻¹ and 21.9 s⁻¹ and 23.6 s⁻¹ |
| CCCC[C@@H]1NC(=O)[C@H](Cc2ccc(O)cc2)NC(=O)[C@@H]2CCCN2C(=O)[C@H](CC(=O)O)NC(=O)[C@H](C)NC(=O)[C@H](Cc2ccccc2)NC(=O)[C@@H]2CSCCC(=O)N3CN(CN(C3)C(=O)CCSCCC(=O)N[C@@H](CC(C)(C)C)C(=O)N3CCC[C@H]3C(=O)N[C@@H](CCC(=O)O)C(=O)N[C@H](CCCCNC(=O)CCc3cn(CCOCCOCCOCCN(CCOCCOCCOCCC(=O)N[C@H]4CSCCC(=O)N5CN6CN(C5)C(=O)CCSC[C@H](NC(=O)[C@@H](CC(=O)O)NC(=O)[C@H](Cc5cccc7ccccc57)NC(=O)[C@@H]5CCCN5C4=O)C(=O)N[C@@H](CCSC)C(=O)N[C@@H](CCCCNC(=N)N)C(=O)N[C@@H](CC(=O)O)C(=O)N[C@@H](Cc4c[nH]c5ccccc45)C(=O)N[C@@H](CO)C(=O)N[C@@H]([C@@H](C)O)C(=O)N4CCC[C@H]4C(=O)N4C[C@H](O)C[C@H]4C(=O)N[C@@H](Cc4c[nH]c5ccccc45)C(=O)N[C@H](C(N)=O)CSCCC6=O)CCOCCOCCOCCn4cc(CCC(=O)NCCCC[C@H]5NC(=O)[C@H](CCC(=O)O)NC(=O)[C@@H]6CCCN6C(=O)[C@H](CC(C)(C)C)NC(=O)CCSCCC(=O)N6CN7CN(C6)C(=O)CCSC[C@H](NC(=O)[C@H](Cc6ccc(O)cc6)NC(=O)[C@@H]6CCCN6C5=O)C(=O)N[C@@H](Cc5ccccc5)C(=O)N[C@@H](C)C(=O)N[C@@H](CC(=O)O)C(=O)N5CCC[C@H]5C(=O)N[C@@H](Cc5ccc(O)cc5)C(=O)N[C@@H](CCCC)C(=O)NCCSCCC7=O)nn4)nn3)C(=O)N3CCC[C@H]3C(=O)N[C@@H](Cc3ccc(O)cc3)C(=O)N2)C(=O)CCSCCNC1=O | Tumor necrosis factor receptor superfamily member 9/Nectin-4 (Homo sapiens, UniProt Q07011+Q96NY8) | reporter gene, agonist | HT-1376 coculture with reporter cells | – | baseline: background | Emax | 71 fold |
